Experimental data of several laboratories.
Values joined by “and” are separate records of one study, mostly repeats; a detail may differ.
Cell line: MDA-MB-435

SMILES = CCCN1CCN(c2ccc3[nH]c(-c4ccc5[nH]c(-c6ccc(OCC)c(OCC)c6)nc5c4)nc3c2)CC1; assay = SRB; conditions = 10 µM, 48 h; endpoint = growth percent; value = -88.2%
SMILES = Cn1cncc1C1=CN(c2ncnc3[nH]cnc23)CCS1; conditions = melanoma cell line; endpoint = TGI; value = > 200 µM
SMILES = Cc1cc(C)n(C(=S)[S][Au][PH](CCCCCC[PH]([Au][S]C(=S)n2nc(C)cc2C)(c2ccccc2)c2ccccc2)(c2ccccc2)c2ccccc2)n1; assay = cell growth, NCI-60 screen; conditions = breast cancer; endpoint = log10 TGI; value = > -4
SMILES = C#C[C@@]1(O)[C@@H](CO)O[C@@H](n2cc(F)c3c(N)ncnc32)[C@@H]1O; assay = SRB; conditions = NCI-60 screen; endpoint = TGI; value = 3.26 µM
SMILES = CCCCN1CCN(c2ccc3[nH]c(-c4ccc5[nH]c(-c6cc(OC)c(OC)c(OC)c6)nc5c4)nc3c2)CC1; assay = SRB; conditions = 10 µM, 48 h; endpoint = growth percent; value = 53.5%
SMILES = O=C(Nc1nnc2n3c(nc(-c4ccc(Cl)cc4)c1-2)SCC3=O)c1ccccc1; assay = SRB; conditions = 10 µM, NCI60 single-dose screen; scale = baseline: untreated; endpoint = cell growth; value = 101%
SMILES = COc1ccc(OC)c(-c2nc3ccc(-c4nc5ccc(N6CCN(C)CC6)cc5[nH]4)cc3[nH]2)c1; assay = SRB; conditions = 10 µM, 48 h; endpoint = growth percent; value = 99%
SMILES = O=C(Nc1nnc2[nH]c(=S)[nH]c(-c3ccc(Cl)cc3)c1-2)c1ccccc1; assay = SRB; conditions = 10 µM, NCI60 single-dose screen; scale = baseline: untreated; endpoint = cell growth; value = 100%
SMILES = CCN(CC)c1ccc(C=NNC(=O)CSc2nc3ccccc3c(=O)n2Cc2ccc(S(N)(=O)=O)cc2)c(O)c1; assay = NCI five-dose screen; endpoint = TGI; value = > 100 µM
SMILES = CCCCN1CCN(c2ccc3[nH]c(-c4ccc5[nH]c(-c6ccc(OCC)c(OCC)c6)nc5c4)nc3c2)CC1; assay = SRB; conditions = 10 µM, 48 h; endpoint = growth percent; value = -41.2%
SMILES = C#C[C@@]1(O)[C@@H](CO)O[C@@H](n2cc(I)c3c(N)ncnc32)[C@@H]1O; assay = SRB; conditions = NCI-60 screen; endpoint = TGI; value = 14 µM and 11.7 µM
SMILES = Cc1cc(=O)[nH]n1-c1nc(-c2ccc(Cl)cc2)c2c(NC(=O)c3ccccc3)nnc-2[nH]1; assay = SRB; conditions = 10 µM, NCI60 single-dose screen; scale = baseline: untreated; endpoint = cell growth; value = 99%
SMILES = S=C([S][Au-][P+](CCCCCC[P+]([Au-][S]C(=S)n1cccn1)(c1ccccc1)c1ccccc1)(c1ccccc1)c1ccccc1)n1cccn1; assay = cell growth, NCI-60 screen; conditions = breast cancer; endpoint = log10 TGI; value = > -4
SMILES = NNc1nc(-c2ccc(Cl)cc2)c2c(NC(=O)c3ccccc3)nnc-2[nH]1; assay = SRB; conditions = 10 µM, NCI60 single-dose screen; scale = baseline: untreated; endpoint = cell growth; value = 103%
SMILES = CC(=O)O[C@H]1C(=O)[C@@]2(C)[C@H]([C@H](OC(=O)c3ccccc3)[C@]3(O)C[C@H](OC(=O)[C@H](O)[C@@H](NC(=O)c4ccccc4)c4ccccc4)C(C)=C1C3(C)C)[C@]1(OC(C)=O)CO[C@@H]1C[C@@H]2O; assay = sulforhodamine B; system = Melanoma cancer; conditions = NCI60 screen; endpoint = TGI; value = 0.02 µM
SMILES = Cc1cc(C)n(-c2nc(-c3ccc(Cl)cc3)c3c(NC(=O)c4ccccc4)nnc-3[nH]2)n1; assay = SRB; conditions = 10 µM, NCI60 single-dose screen; scale = baseline: untreated; endpoint = cell growth; value = 60%
SMILES = CN1CCN(c2ccc3[nH]c(-c4ccc5[nH]c(-c6ccc(C(F)(F)F)cc6)nc5c4)nc3c2)CC1; assay = SRB; conditions = 10 µM, 48 h; endpoint = growth percent; value = 49.8%
SMILES = Cc1n[nH]c2nc(-c3ccc(Cl)cc3)c3c(NC(=O)c4ccccc4)nnc-3n12; assay = SRB; conditions = 10 µM, NCI60 single-dose screen; scale = baseline: untreated; endpoint = cell growth; value = 104%
SMILES = CCCCN1CCN(c2ccc3nc(-c4ccc5nc(-c6cc(OC)ccc6OC)[nH]c5c4)[nH]c3c2)CC1; assay = SRB; conditions = 10 µM, 48 h; endpoint = growth percent; value = 101%

A few entries again:
SMILES = CCCCN1CCN(c2ccc3[nH]c(-c4ccc5[nH]c(-c6ccc(OCC)c(OCC)c6)nc5c4)nc3c2)CC1; assay = SRB; conditions = 10 µM, 48 h; endpoint = growth percent; value = -41.2%
SMILES = C#C[C@@]1(O)[C@@H](CO)O[C@@H](n2cc(F)c3c(N)ncnc32)[C@@H]1O; assay = SRB; conditions = NCI-60 screen; endpoint = TGI; value = 3.26 µM
